Assay results of several laboratories.
Each numbered part is a random draw from the data of one study; scales do not carry over between parts.

Block 1 — technique: aptamer microarray, sandwich; form: DNA with 2'F-ANA; medium: in vitro; tested at: 200 nM; together with: Cy3 exosite-II aptamer, 400 nM; direction: higher = stronger binding; quantity: mean fluorescence intensity; strand: GGTTGGTGTGGTTGG
Target: Prothrombin, mature alpha-thrombin (F2, Homo sapiens, UniProt P00734)
Notes: whole 15-mer aptamer, many near background
Modification = 2'F-ANA at 4 5 6 9 10 11 13 15; result = 47.4 a.u.
Modification = 2'F-ANA at 3 4 5 6 8 11 12 13 14; result = 48.9 a.u.
Modification = 2'F-ANA at 2 4 8 10 11 12 13 15; result = 82.7 a.u.
Modification = 2'F-ANA at 1 6 8 10 11 12; result = 69.1 a.u.
Modification = 2'F-ANA at 2 3 4 5 6 7 8 10 11 12 15; result = 93.2 a.u.
Modification = 2'F-ANA at 4 9 10 13 14 15; result = 74 a.u.
Modification = 2'F-ANA at 1 3 4 6 13; result = 125 a.u.
Modification = 2'F-ANA at 1 3 7 8 9 11; result = 292 a.u.
Modification = 2'F-ANA at 1 2 3 4 5 6 7 8 10 12; result = 61.9 a.u.
Modification = 2'F-ANA at 1 2 3 5 6 10 11 12; result = 358 a.u.
Modification = 2'F-ANA at 1 2 3 5 6 7 12 13; result = 80.8 a.u.
Modification = 2'F-ANA at 2 5 6 7 8 10 11 12 14; result = 45.7 a.u.
Modification = 2'F-ANA at 4 6 7 9 10 12 13 15; result = 81.3 a.u.
Modification = 2'F-ANA at 1 3 4 6 9 10 11 14 15; result = 56.7 a.u.
Modification = 2'F-ANA at 1 2 3 5 8 9 12 15; result = 130 a.u.
Modification = 2'F-ANA at 1 2 3 4 5 9 10 13 15; result = 47.5 a.u.
Modification = 2'F-ANA at 2 5 7 8 9 12 14; result = 49 a.u.
Modification = 2'F-ANA at 7 8 9 11 14; result = 226 a.u.
Modification = 2'F-ANA at 1 6 9 11 14 15; result = 52.7 a.u.
Modification = 2'F-ANA at 1 2 6 14; result = 83.7 a.u.
Modification = 2'F-ANA at 1 3 8 9 11 14; result = 89 a.u.
Modification = 2'F-ANA at 2 3 5 6 8 9 12 15; result = 201 a.u.
Modification = 2'F-ANA at 1 5 6 8 13 15; result = 49.4 a.u.
Modification = 2'F-ANA at 9 13 15; result = 380 a.u.
Modification = 2'F-ANA at 1 2 3 11 12 13; result = 306 a.u.

Block 2 — technique: protein binding microarray; form: double-stranded DNA, one strand shown; medium: in vitro; tested at: not given; baseline: not given; direction: higher = stronger binding; quantity: E-score
Target: Histone acetyltransferase KAT6A, both winged helices, GST fusion (KAT6A, Homo sapiens, UniProt Q92794, residues 1-181)
Notes: 8-mer, flanks averaged, mean of 2 arrays, mostly near background
Construct (chain): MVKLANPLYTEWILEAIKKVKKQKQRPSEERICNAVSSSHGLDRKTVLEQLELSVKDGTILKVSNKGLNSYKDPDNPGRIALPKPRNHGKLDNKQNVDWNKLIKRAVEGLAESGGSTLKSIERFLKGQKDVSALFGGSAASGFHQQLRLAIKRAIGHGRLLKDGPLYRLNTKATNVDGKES
Strand = GAAGGGGA; result = -0.192
Strand = CGGCTGCC; result = 0.216
Strand = CCACGGTA; result = 0.211
Strand = ACAGTTTA; result = -0.0639
Strand = TGAGATCA; result = -0.0482
Strand = ATGCTGAA; result = -0.216
Strand = AGTTTGCG; result = 0.135
Strand = GAAAAGAA; result = -0.0227
Strand = AGAAGACT; result = -0.183
Strand = ATGAGCTG; result = -0.0696
Strand = TCAACAAA; result = -0.0919
Strand = GTAGGATA; result = -0.201
Strand = ATGCGTCA; result = 0.0884
Strand = CACTCTGA; result = -0.142
Strand = TTCTCAAA; result = -0.208
Strand = CCATGCGA; result = -0.075
Strand = TGCCTCAA; result = -0.148
Strand = TAGATGGA; result = -0.209
Strand = CGTTTCGC; result = 0.168
Strand = CAAGCAGC; result = -0.204
Strand = CCCTTCAA; result = -0.142
Strand = ACACAAAA; result = -0.143
Strand = GATTCACC; result = 0.0681
Strand = ACCGTTTA; result = 0.205

Block 3 — technique: RNA Bind-n-Seq; form: RNA; medium: in vitro; tested at: not given; baseline: input RNA pool; direction: higher = stronger binding; quantity: bound/input enrichment
Target: RING finger protein unkempt homolog, zinc fingers 1-6, GST-SBP tag (UNK, Homo sapiens, UniProt Q9C0B0, residues 30-357)
Notes: RNA with constant flanks, human and mouse sites, ends assumed
Shared flanks, not repeated: GGGAGUUCUACAGUCCGACGAUC … CAACAGAGGAUUGAGCAUCA
Residues (chain): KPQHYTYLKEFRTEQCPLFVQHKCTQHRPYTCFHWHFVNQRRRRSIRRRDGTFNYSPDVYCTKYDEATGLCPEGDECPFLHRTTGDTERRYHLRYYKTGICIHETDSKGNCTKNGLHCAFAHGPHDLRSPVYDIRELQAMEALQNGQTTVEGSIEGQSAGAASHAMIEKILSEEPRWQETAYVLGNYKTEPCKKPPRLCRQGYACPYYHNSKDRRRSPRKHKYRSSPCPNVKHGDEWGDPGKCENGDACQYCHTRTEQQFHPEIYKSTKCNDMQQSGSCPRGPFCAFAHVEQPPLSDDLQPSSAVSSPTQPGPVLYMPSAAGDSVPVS
Strand = GAUAAACUUGAAGCAGACAGAUCAUGGGAAAAUAUUCCUGUUACUUUCAAAUCUCCUGUUCCCGUUAACUCUGAUGAUAGUCCUCAACAAACUUCAAGGGCAAAGAGUGCUAAAGGGGUU; result = 0.239 ratio
Strand = AAUAUGGCAACUUUGAAAGAUAUCACCAGGAGACUAAAGUCCAUCAAAAACAUCCAGAAAAUUACCAAGUCUAUGAAAAUGGUAGCGGCAGCAAAAUAUGCCCGAGCUGAGAGAGAGCUG; result = 0.343 ratio
Strand = AGUCUGUCUGGAUGUUACCAGAUCACAGACCAUGGUCUCAGGGCUCUGACUCUGGGAGGAGGGCUGCCUUACCUGGAGCACCUGAAUCUCUCUGGCUGUCUGACUGUAACUGGUGCAGGG; result = 0.23 ratio
Strand = GCUUUUUAUCUUCUAGCAUUUUUUUACUACCUAUAUGGCAUGAUCUAUGUUUUGGUGAGCUCUUAGAACAACACACAGAAGAAUUGGUCCAGUUAAGUGCAUGCAAAAAGCCACCAAAUG; result = 4.38 ratio
Strand = UAUGCCUUCACCAGCUAUGGCAUUAGCCCACAGGCCAAGAUAACUUAUAAUAUCAAAAUGAAUAGAAGAAAAUGUGUUCACUGGAAACUGGCUGUUGAGCCCCUCCAAUGGGAGCUGAGG; result = 5.43 ratio
Strand = UGGCCACCUCCUCCUCAGAGUCUCUUCCCAAAAGAAUCCCCUAGCCAGGAUAAUGGGUGGCUUAGUAGAGGCUCAGGGAAGGAACAGGGAGAAGGGUGGCUGUGAGCUCAAGUCCCCCUC; result = 0.0927 ratio
Strand = UCAGGAGGAAAGGCAUCCCAGACAGUUUUGAAGUUUUCAAAGACUGGCUCUGCUGUUAAGAAGUUGUACUUAAAGCGGAGGAGCUAAGCCACCUGCCAAAAUGUGCAAAGGACUUGCAGC; result = 0.122 ratio
Strand = CUAUAUCUGAAACUUACAUUUGACCUCAUAGAGAAAGGCUAUCUAGUGUUAAAGAGCUCUAGCUACAAAGUAGUUCCUGUUUCGCUCUCAGAGGUUUAUUUACUCCAGUGCAAUAUGAAG; result = 0.415 ratio
Strand = UUGGAAUUAAUAAAGCAGUUGACAUUCACUGUUAGUUACAGCAACAUACUGUGAUUUUUAAUUAGAUAGUAAUUCAGAUUUAUUACUCUAUGAAAUUCUGUCUUUUGACACCAUAGUGCC; result = 0.725 ratio
Strand = AGGAUAGUAAGUUCAGCUAAUGAACAAAAAAGAUUUGAGUUCUUGGUUUGGGCUAAAACUAUAGAGAGAUCAUGCCCUUUUGUACGGUGCAGGUUAUUGUCAUUCGACCGAUAACUUAUU; result = 0.206 ratio
Strand = UUAGCUUUGUUAAAUGUAGCAACUCAGGGAGUUCAUUUAUGGGACUUGCAAGACAGAGUUUUAGUAAGAAAGUAUCAAGGUGUUACACAAGGGUUUUAUACAAUUCAUUCAUGUUUUGGA; result = 1.44 ratio

Block 4 — technique: protein-binding microarray; form: double-stranded DNA, one strand shown; medium: in vitro; tested at: 0.8 µM; notes: whole 60-bp probe, no competitor; direction: higher = stronger binding; quantity: fluorescence intensity; shared flanks, not repeated: … GTCTTGATTCGCTTGACGCTGCTG
Target: Centromere-binding protein 1, full length, N-terminal tag (CBF1, Saccharomyces cerevisiae, UniProt P17106, residues 1-351)
UniProt P17106, sequence (whole entry, looked up): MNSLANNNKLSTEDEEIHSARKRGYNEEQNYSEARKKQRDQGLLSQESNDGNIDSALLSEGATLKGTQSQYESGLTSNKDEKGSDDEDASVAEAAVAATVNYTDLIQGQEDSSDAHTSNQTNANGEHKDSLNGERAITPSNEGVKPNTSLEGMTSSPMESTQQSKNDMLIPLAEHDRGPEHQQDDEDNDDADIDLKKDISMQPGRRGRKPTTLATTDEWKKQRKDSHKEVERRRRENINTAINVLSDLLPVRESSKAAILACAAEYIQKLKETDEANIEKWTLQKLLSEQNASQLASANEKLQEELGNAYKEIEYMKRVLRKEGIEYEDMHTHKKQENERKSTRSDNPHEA
Strand = GAAGCATGGCCTGACAGCGTGGTGTTTGATGAATAG; result = 519 a.u.
Strand = TGTACGAAGCTATTTCACGGGATTATAGTAGTTAGG; result = 594 a.u.
Strand = CCTAACTACTATAGTCAGGTGTAATAGCTTCGTACA; result = 845 a.u.
Strand = CTAATCACGTTATCGTACGTGACCGAATGCCGTTTC; result = 3140 a.u.
Strand = CTAATATGCATATATACCGTCATGAAGTAGCTTTTC; result = 520 a.u.
Strand = GAAGTATAAAAGATACACGCCACTGGTTGAATGTAG; result = 578 a.u.
Strand = CTAAAGCGTAATTCTCTCAGCTGAACAAGAACTTTC; result = 528 a.u.
Strand = CTACAAGGGCATTGTCATGTGCACGCATAATAATTC; result = 1670 a.u.
Strand = CTAGCTAAACGTCAAAACGTGTAAAGCACCTATTTC; result = 522 a.u.
Strand = GAAAATATTTAAGGTGTCACGGTGATTGCAAGATAG; result = 830 a.u.
Strand = CTAAGCTTGGCTCATGTCGTCACCAGTCACTAGTTC; result = 554 a.u.
Strand = CTAACTTGAAGTTACGATGTGACATAAATTTGTTTC; result = 569 a.u.
Strand = GAAGAGAAAATCTTCAACATCAGGGCTATGTCATAG; result = 534 a.u.
Strand = GAATAACAGCAAGAAAACGTCACATTTTATGGATAG; result = 566 a.u.
Strand = TGTACGAAGCTATTGCACACGAATATAGTAGTTAGG; result = 533 a.u.
Strand = CTAATGACAATTGTACACGTTGAAACGGAATTATTC; result = 539 a.u.
Strand = GAAAACTAGTTCGATCACGAATTAATCCAATCTTAG; result = 541 a.u.
Strand = TGTACGAAGCTATACCACGTGACTATAGTAGTTAGG; result = 17900 a.u.
Strand = CCTAACTACTATAACTATCACATATAGCTTCGTACA; result = 557 a.u.
Strand = CTAATTACTATTATACATGTGATATCAGAACGGTTC; result = 1970 a.u.
Strand = CTATGCTTGAACCACCACCTGTATTGCTGGTATTTC; result = 475 a.u.
Strand = TGTACGAAGCTATATATGGTGAGTATAGTAGTTAGG; result = 514 a.u.
Strand = CCTAACTACTATAGCCACGGTATATAGCTTCGTACA; result = 517 a.u.
Strand = CTACGCTTAATACAACACGTCGGCTTTCGCTCATTC; result = 534 a.u.
Strand = CTATATATTGCACAGGTGATTTTGATGTAGAATTTC; result = 887 a.u.

Excerpt of the above (block 1):
Modification = 2'F-ANA at 1 3 4 6 9 10 11 14 15; result = 56.7 a.u.
Modification = 2'F-ANA at 1 2 3 5 8 9 12 15; result = 130 a.u.
Modification = 2'F-ANA at 1 2 3 4 5 9 10 13 15; result = 47.5 a.u.
Modification = 2'F-ANA at 2 5 7 8 9 12 14; result = 49 a.u.
Modification = 2'F-ANA at 7 8 9 11 14; result = 226 a.u.
Modification = 2'F-ANA at 1 6 9 11 14 15; result = 52.7 a.u.
Modification = 2'F-ANA at 1 2 6 14; result = 83.7 a.u.
Modification = 2'F-ANA at 1 3 8 9 11 14; result = 89 a.u.
Modification = 2'F-ANA at 2 3 5 6 8 9 12 15; result = 201 a.u.
Modification = 2'F-ANA at 1 5 6 8 13 15; result = 49.4 a.u.
